Assay results of several laboratories.
Each numbered part is a random draw from the data of one study; scales do not carry over between parts.
UniProt P05771, sequence (whole entry, looked up): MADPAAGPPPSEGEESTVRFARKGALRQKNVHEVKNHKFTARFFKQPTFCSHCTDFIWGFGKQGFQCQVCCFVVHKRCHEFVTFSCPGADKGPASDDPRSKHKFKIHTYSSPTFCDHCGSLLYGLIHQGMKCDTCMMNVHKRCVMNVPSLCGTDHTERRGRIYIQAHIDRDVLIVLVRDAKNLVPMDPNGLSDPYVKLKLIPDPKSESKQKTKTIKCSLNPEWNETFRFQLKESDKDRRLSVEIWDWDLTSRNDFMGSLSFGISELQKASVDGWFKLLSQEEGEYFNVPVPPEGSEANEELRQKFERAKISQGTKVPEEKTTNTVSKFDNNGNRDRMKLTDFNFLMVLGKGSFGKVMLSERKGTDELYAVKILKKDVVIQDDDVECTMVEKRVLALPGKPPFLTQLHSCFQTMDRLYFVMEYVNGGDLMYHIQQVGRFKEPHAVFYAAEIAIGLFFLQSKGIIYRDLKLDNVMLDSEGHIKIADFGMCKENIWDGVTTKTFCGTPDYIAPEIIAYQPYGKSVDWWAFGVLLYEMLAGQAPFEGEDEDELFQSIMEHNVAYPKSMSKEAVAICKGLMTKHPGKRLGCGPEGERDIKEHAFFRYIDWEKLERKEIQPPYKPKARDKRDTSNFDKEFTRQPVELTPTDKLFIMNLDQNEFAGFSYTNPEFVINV

Series 1
Target: Max dimerization protein 1, bHLH-zipper, MAX partner unstated (MXD1, Homo sapiens, UniProt Q05195, residues 56-136)
Technique: protein-binding microarray
Form: double-stranded DNA, one strand shown
Sample: in vitro
Tested at: not given
Setting: k-mer, scored over probes, only values ≥0.25
Direction: higher = stronger binding
Residues (chain): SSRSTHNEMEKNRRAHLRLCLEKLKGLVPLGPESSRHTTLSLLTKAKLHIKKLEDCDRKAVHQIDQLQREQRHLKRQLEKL
| Strand | E-score |
| --- | --- |
| GCATGCAA | 0.344 |
| ACGAGAAC | 0.26 |
| ACCCACGC | 0.393 |
| CATGGTTC | 0.259 |
| CACGCCGG | 0.317 |
| GAACGCAC | 0.256 |
| AACCACGA | 0.311 |
| ATGCGTAA | 0.263 |

Series 2
Target: Centromere-binding protein 1, full length, His-tagged (CBF1, Saccharomyces cerevisiae, UniProt P17106, residues 1-351)
UniProt P17106, sequence (whole entry, looked up): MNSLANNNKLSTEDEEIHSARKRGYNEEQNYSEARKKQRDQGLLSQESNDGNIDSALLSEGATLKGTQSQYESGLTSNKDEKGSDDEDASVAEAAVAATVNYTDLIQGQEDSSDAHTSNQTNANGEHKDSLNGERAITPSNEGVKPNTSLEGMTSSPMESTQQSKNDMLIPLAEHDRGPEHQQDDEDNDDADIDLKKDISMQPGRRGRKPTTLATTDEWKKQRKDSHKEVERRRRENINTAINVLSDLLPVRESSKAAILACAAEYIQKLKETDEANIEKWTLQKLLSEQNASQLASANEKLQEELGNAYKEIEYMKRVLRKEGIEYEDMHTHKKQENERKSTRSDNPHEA
Technique: competition protein-binding microarray
Form: double-stranded DNA, one strand shown
Sample: in vitro
Tested at: 2 µM
Setting: whole 60-bp probe, lowest competitor level
Together with: Pho4 competitor, 0.05 µM
Direction: higher = stronger binding
All sequences stand within: … GTCTTGATTCGCTTGACGCTGCTG
| Strand | fluorescence intensity [a.u.] |
| --- | --- |
| CGTCCTAGTGATTTTCACGTGATATCCATGAGGAAG | 3670 |
| CGTCCTAGTGATTGTTGGGTGGGTGCCATGAGGAAG | 99.7 |
| AATGCCAGATTCGTTTTCGTGACAAACTTTAGCATA | 80.9 |
| AAATTACTAAGTTGTCATGTGGGTGACGCCGTATGA | 193 |
| CTAACGAAGGTTTTTCACGTGTGCTACAAGCCAAGT | 650 |
| ATGTCGAAGCCGGTGCAGGTGATAGTGCTGCTTACA | 99.8 |
| CCTATAACAGCAGTTGTCGTGATGGTTATAGATAAA | 89 |
| TGAAATGGAATCGACCACGGGTCTTATTGAAAGCGG | 95.1 |

Series 3
Target: Prothrombin, mature alpha-thrombin (F2, Homo sapiens, UniProt P00734)
Technique: aptamer microarray, sandwich
Form: DNA with 2'F-ANA
Sample: in vitro
Tested at: 200 nM
Setting: whole 15-mer aptamer, many near background
Together with: Cy3 exosite-II aptamer, 400 nM
Direction: higher = stronger binding
Strand: GGTTGGTGTGGTTGG
| Modification | mean fluorescence intensity |
| --- | --- |
| 2'F-ANA at 3 9 10 11 13 15 | 475 a.u. |
| 2'F-ANA at 1 2 7 8 9 10 12 15 | 72.9 a.u. |
| 2'F-ANA at 1 2 3 6 12 14 | 83 a.u. |
| 2'F-ANA at 1 3 4 5 7 8 12 13 | 89.3 a.u. |
| 2'F-ANA at 1 4 6 10 11 13 14 15 | 54.1 a.u. |
| 2'F-ANA at 3 6 8 10 11 13 15 | 377 a.u. |
| 2'F-ANA at 1 3 4 5 10 11 14 | 46.2 a.u. |
| 2'F-ANA at 1 2 7 8 12 14 | 79.6 a.u. |

Other studies, line by line
| SMILES | target | test | conditions | how to read | quantity | value |
| --- | --- | --- | --- | --- | --- | --- |
| O=C1NC(=O)C(c2c[nH]c3ccccc23)=C1c1c[nH]c2ccccc12 | Protein kinase C beta type, isoform beta-I (PRKCB, Homo sapiens, UniProt P05771) | enzyme activity, inhibitor | 0.5 µM | relative to: control | remaining activity | 26.1% |
